{"data": "Measured values gathered from unrelated publications", "target": "Mitogen-activated protein kinase 9 (MAPK9, Homo sapiens, UniProt P45984)", "note": "Compare with care: the assays were run in different laboratories.", "UniProt P45984, sequence (whole entry, looked up)": "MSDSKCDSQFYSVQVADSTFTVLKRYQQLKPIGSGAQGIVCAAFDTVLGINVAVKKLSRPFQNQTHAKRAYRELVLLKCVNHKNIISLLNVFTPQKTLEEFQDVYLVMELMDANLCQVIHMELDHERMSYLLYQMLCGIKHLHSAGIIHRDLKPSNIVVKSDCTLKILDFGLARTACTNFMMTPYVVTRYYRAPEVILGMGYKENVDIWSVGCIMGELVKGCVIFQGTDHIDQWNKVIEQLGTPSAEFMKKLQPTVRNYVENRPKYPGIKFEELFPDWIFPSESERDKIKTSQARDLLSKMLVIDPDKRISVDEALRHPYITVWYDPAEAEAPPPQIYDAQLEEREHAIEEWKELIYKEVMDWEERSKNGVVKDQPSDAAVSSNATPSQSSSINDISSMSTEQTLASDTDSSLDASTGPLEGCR"}
{"SMILES": "CC(C)[C@H]1NC(=O)C[C@H]2/C=C/CCSSC[C@@H](NC1=O)C(=O)N[C@H](Cc1cccc3ccccc13)C(=O)NCC(=O)O2", "test": "enzyme activity, inhibitor", "conditions": "10 µM", "measurement": "inhibition", "value": "-4.1%"}
{"SMILES": "Nc1ccc(/C=C/C(=O)N2CCc3c(oc4c(-c5ccc(F)cc5)cc(-c5ccc(C(=O)N6CCC(F)(F)CC6)cn5)cc34)C2)cn1", "test": "binding, competition with immobilised ligand", "conditions": "1 µM", "measurement": "remaining binding", "value": "94%"}
{"SMILES": "O=C(CN1CN(c2ccccc2)C2(CCN(C(=O)c3cnc4[nH]ncc4c3)CC2)C1=O)NCC(F)(F)F", "test": "inhibitor", "conditions": "concentration not given", "measurement": "inhibition", "value": "< 50%"}
{"SMILES": "CS(C)(=O)=Nc1ccc(-c2ccc(-c3nc4cc(O[C@@H]5CO[C@H]6[C@@H]5OC[C@H]6O)[nH]c4cc3F)cc2)cc1", "test": "enzyme activity, inhibitor", "conditions": "10 µM", "measurement": "inhibition", "value": "5%"}
{"SMILES": "C[C@H](NCc1ccc(-c2ccc(C(F)(F)F)cc2)cc1)C(N)=O", "test": "cell-free assay, competition with immobilised ligand", "conditions": "1 µM", "measurement": "inhibition", "value": "4%"}
{"SMILES": "CN(C)[C@H]1C[C@@]23CC[C@@]4(O2)C(=CC[C@]2(C)[C@@H](c5ccc6ccncc6c5)CC[C@H]24)C=C3[C@@H](O)[C@@H]1O", "test": "ATP probe labelling, inhibitor, KiNativ profiling", "conditions": "0.1 µM", "measurement": "inhibition", "value": "-1%"}
{"SMILES": "O=C1NC(=O)c2c1c1cc(F)c[n+]3c1c1c2c2cc(O)ccc2[n]1[Ru-4]312([N]=C=S)[S+]3CC[S+]1CC[S+]2CC3 (centres unmarked)", "test": "enzyme activity", "conditions": "100 nM, human enzyme, together with: 10 µM ATP", "how to read": "reference: untreated", "measurement": "remaining activity", "value": "93%"}
{"SMILES": "CCOC(=O)[C@@H]1Cc2c(cc([N+](=O)[O-])cc2[N+](=O)[O-])[C@H](O)[C@]12C(=O)Nc1ccc(Br)cc12", "test": "KINOMEscan", "conditions": "100 nM", "how to read": "reference: DMSO control", "measurement": "remaining binding", "value": "100%"}
{"note": "A few entries again:"}
{"SMILES": "CC(C)[C@H]1NC(=O)C[C@H]2/C=C/CCSSC[C@@H](NC1=O)C(=O)N[C@H](Cc1cccc3ccccc13)C(=O)NCC(=O)O2", "test": "enzyme activity, inhibitor", "conditions": "10 µM", "measurement": "inhibition", "value": "-4.1%"}
